Measurements from different studies.
Parts stem from different laboratories: compare values within a part only.
UniProt Q9C7I9, sequence (whole entry, looked up): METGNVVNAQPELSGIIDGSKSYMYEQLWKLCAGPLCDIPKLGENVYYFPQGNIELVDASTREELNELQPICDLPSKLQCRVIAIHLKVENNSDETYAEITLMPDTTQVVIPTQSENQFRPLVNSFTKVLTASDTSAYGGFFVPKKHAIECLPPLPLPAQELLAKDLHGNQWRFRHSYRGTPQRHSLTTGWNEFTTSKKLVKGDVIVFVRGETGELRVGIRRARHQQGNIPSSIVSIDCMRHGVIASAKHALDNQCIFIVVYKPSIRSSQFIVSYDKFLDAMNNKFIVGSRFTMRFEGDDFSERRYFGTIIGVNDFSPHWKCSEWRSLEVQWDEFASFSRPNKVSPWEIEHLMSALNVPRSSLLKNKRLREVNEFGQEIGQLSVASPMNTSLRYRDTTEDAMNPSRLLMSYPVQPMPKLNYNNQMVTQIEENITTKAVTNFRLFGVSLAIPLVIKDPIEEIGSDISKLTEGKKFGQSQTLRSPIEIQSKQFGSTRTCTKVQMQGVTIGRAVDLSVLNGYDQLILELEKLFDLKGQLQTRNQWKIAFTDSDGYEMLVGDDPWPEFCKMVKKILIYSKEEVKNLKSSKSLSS
UniProt O43293, sequence (whole entry, looked up): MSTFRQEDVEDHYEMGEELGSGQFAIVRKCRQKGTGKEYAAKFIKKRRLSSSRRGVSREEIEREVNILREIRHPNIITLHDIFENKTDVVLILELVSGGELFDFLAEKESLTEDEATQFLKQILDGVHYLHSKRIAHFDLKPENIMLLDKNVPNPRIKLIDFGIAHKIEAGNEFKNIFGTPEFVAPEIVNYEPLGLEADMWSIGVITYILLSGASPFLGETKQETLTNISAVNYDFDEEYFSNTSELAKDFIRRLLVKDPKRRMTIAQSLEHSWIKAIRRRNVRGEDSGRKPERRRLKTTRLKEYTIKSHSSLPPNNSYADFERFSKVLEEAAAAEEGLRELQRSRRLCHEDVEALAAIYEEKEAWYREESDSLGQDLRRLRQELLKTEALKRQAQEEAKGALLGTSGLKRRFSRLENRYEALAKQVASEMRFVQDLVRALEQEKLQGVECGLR
UniProt Q8L7G0, sequence (whole entry, looked up): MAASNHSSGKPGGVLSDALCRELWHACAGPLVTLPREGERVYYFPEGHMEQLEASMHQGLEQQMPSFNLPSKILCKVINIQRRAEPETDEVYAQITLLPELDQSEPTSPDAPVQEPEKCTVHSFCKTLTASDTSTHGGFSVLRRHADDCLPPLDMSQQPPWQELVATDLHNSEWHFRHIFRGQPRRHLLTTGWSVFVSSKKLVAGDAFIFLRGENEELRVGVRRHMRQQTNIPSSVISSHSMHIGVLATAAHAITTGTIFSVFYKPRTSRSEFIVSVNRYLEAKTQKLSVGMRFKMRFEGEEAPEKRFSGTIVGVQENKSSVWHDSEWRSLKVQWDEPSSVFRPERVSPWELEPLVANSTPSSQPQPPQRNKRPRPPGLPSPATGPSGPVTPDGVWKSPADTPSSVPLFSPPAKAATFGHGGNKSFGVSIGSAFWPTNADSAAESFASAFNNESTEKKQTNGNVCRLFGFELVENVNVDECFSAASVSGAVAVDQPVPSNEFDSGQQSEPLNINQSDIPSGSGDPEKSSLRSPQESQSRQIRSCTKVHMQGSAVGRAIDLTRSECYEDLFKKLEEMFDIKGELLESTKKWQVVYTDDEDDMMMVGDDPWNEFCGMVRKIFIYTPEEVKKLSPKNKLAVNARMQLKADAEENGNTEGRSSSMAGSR
UniProt Q9C5X0, sequence (whole entry, looked up): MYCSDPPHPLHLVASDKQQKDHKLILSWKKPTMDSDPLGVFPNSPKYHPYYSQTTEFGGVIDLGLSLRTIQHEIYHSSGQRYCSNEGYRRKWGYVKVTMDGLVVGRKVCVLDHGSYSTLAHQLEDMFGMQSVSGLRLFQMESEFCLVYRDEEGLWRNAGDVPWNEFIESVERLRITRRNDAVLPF
UniProt Q9FX25, sequence (whole entry, looked up): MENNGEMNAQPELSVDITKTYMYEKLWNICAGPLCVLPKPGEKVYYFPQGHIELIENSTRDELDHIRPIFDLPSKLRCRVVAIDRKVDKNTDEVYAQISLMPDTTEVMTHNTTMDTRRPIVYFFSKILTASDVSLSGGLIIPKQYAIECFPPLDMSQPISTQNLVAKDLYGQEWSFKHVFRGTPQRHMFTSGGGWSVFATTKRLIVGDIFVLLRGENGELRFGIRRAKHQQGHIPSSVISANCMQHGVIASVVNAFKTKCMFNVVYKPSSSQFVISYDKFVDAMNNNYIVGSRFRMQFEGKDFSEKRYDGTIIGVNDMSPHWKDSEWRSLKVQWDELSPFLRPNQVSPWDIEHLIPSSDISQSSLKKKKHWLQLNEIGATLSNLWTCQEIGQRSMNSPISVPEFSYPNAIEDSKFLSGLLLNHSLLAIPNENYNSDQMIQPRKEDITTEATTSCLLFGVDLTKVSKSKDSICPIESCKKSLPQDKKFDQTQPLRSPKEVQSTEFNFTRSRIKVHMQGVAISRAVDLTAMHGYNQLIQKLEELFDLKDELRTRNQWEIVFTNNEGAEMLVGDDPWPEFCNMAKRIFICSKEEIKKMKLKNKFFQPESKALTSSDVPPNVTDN
UniProt P49137, sequence (whole entry, looked up): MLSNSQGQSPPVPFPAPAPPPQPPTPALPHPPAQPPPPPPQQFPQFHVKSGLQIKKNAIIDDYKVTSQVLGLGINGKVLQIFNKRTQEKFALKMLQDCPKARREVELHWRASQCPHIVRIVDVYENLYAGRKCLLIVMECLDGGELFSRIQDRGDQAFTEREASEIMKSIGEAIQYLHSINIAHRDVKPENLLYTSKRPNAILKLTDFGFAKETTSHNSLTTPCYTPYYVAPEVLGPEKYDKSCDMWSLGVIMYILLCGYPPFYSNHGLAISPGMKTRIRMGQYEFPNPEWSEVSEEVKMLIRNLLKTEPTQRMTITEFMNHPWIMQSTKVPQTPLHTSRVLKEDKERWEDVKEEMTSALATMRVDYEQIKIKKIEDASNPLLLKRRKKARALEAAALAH
UniProt P51817, sequence (whole entry, looked up): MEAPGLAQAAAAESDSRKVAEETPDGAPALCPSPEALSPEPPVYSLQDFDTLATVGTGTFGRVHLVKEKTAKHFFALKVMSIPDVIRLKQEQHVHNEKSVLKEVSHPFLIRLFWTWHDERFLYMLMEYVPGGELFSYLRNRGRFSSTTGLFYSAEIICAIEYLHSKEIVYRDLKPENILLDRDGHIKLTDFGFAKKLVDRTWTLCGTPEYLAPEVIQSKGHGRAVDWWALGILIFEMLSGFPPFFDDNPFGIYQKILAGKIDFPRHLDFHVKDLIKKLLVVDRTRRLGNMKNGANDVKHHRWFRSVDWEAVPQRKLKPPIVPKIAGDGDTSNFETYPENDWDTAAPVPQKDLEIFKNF
UniProt P07948, sequence (whole entry, looked up): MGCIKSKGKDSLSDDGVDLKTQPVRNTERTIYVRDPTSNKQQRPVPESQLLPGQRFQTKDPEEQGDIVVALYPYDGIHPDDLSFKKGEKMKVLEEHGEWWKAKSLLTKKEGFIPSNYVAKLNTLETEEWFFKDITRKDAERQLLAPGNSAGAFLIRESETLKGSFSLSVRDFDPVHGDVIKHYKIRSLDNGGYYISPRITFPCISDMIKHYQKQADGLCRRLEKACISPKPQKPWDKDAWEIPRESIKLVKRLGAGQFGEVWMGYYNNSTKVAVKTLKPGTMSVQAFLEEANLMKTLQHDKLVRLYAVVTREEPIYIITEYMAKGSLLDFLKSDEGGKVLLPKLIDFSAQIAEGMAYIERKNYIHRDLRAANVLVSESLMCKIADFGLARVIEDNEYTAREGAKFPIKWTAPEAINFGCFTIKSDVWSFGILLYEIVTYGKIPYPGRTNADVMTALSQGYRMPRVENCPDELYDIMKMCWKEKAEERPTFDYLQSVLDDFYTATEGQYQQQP

Study 1 — Sequence: B1 (IAA30); technique: two-hybrid; notes: weak activation fusion; reference: out of 4 tests; direction: higher = firmer interaction; measurement: positive tests
B1: IAA30 (Arabidopsis thaliana, UniProt Q9M1R4); chain MGRGRSSSSSSIESSCKSNPFGVSSSNTRNLSTDLRLGLSFGSSSGQYYNGGDNHEYDGVGAAEEMMIMEEEEQNECNSVGSFYVKVNMEGVPIGRKIDLLSLNGYHDLITTLDYMFNASILWAEEEDMCSEKSHVLTYADKEGDWMMVGDVPWEMFLSSVRRLKISRAYHY
IAA34 (Arabidopsis thaliana, UniProt Q9C5X0): 2
ARF11 500-622 (Arabidopsis thaliana, UniProt Q9ZPY6): 1
ARF1 538-665 (Arabidopsis thaliana, UniProt Q8L7G0): 1
ARF8 699-811 (Arabidopsis thaliana, UniProt Q9FGV1): 2
ARF20 484-590 (Arabidopsis thaliana, UniProt Q9C7I9): 1
ARF13 (Arabidopsis thaliana, UniProt Q9FX25): 0

Study 2 — read-out: enzyme activity; action: inhibitor; concentration: 0.5 µM; reference: control; measurement: remaining activity
Target: Homeodomain-interacting protein kinase 1 (HIPK1, Homo sapiens, UniProt Q86Z02)
UniProt Q86Z02, sequence (whole entry, looked up): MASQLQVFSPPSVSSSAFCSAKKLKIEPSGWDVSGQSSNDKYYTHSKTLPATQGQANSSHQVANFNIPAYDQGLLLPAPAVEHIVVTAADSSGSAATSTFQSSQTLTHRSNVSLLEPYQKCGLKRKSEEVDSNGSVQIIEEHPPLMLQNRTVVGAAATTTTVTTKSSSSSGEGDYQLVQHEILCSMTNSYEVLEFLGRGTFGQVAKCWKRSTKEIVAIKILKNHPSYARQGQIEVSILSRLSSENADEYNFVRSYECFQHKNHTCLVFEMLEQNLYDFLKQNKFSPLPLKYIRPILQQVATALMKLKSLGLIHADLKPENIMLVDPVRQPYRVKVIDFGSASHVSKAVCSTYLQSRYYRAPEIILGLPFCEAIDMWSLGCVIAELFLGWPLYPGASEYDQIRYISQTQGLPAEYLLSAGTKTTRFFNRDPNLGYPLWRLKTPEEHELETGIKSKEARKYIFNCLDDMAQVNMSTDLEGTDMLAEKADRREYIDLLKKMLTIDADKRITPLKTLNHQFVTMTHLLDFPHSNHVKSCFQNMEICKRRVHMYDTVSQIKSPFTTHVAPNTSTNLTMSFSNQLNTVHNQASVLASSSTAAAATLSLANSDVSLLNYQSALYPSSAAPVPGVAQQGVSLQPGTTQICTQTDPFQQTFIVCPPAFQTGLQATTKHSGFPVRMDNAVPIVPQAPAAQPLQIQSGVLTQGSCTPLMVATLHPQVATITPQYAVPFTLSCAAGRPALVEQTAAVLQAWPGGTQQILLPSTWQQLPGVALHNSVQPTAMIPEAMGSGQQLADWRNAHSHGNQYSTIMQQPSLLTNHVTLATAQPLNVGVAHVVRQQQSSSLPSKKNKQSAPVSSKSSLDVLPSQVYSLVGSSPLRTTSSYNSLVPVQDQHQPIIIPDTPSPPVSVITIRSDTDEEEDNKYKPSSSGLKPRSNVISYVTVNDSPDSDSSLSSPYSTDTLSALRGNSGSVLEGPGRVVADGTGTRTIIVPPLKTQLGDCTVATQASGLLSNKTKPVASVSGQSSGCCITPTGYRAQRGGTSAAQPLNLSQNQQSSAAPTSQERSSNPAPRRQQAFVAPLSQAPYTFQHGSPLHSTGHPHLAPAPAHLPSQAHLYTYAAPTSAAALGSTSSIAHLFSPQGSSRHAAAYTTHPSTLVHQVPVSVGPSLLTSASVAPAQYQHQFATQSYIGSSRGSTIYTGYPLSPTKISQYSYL
Cc1cc(Nc2cc(N3CCN(C)CC3)nc(Sc3ccc(NC(=O)C4CC4)cc3)n2)[nH]n1: 98.6%
O=C(c1cc2cc(O)ccc2[nH]1)c1cc2cc(O)ccc2[nH]1: 94.3%
c1ccc2c(-c3ccncc3)c[nH]c2c1: 97.4%
c1ccc(-c2n[nH]c3c2oc2ccccc23)cc1: 103%
N#Cc1cnc2cnc(NCc3cccnc3)cc2c1Nc1ccc(F)c(Cl)c1: 98.6%
COc1ccc2c(c1)c(C1=C(c3c[nH]c4ccccc34)C(=O)NC1=O)cn2CCCN(C)C: 77.7%
Cc1ccc(S(=O)(=O)/C=C/C#N)cc1: 105%
O=C1Nc2ccccc2/C1=C\c1c(Cl)[nH]c2ccccc12: 100%
O=C1NC(=O)c2c1c1c3ccccc3[nH]c1c1[nH]c3cc(Br)ccc3c21: 98.2%
O=C1Nc2ccc(Br)cc2/C1=C/c1cc2c([nH]1)CCCC2: 97.2%
CCCNC(=O)Nc1ccc(Oc2ncnc3cc(OC)c(OC)cc23)cc1Cl: 96.8%
CCCCc1c(-c2ccc(OC)cc2)[nH]c2nccnc12: 109%
O=c1cc(N2CCOCC2)oc2c(-c3ccccc3)cccc12: 111%
COc1cccc(-c2cc(=O)c3ccccc3o2)c1N: 104%
Oc1cccc(-c2nc(N3CCOCC3)c3oc4ncccc4c3n2)c1: 101%
O=Nc1c(-c2c(O)[nH]c3cc(Br)ccc23)[nH]c2ccccc12: 103%
O=C1NC(=O)c2c1c1c3ccccc3[nH]c1n1cncc21: 82.6%

Study 3 — technique: RNA Bind-n-Seq; molecule type: RNA; medium: in vitro; concentration: 20 nM; notes: 6-mer, flanks averaged, single round; together with: 150 mM KCl; reference: input library; direction: higher = stronger binding; measurement: 6-mer enrichment (R)
Target: TAR DNA-binding protein 43, full length, His tag (TARDBP, Homo sapiens, UniProt Q13148, residues 1-414)
UGCAAG: 0.991
GUCUAC: 0.621
AAAACU: 0.628
CGUAUU: 0.597
UUUAUU: 0.69
AGAAGU: 0.856
UUCCGC: 0.593
AUCCUA: 0.55

Study 4 — read-out: cell-free assay; technique: competition with immobilised ligand; concentration: 1 µM; measurement: remaining binding
Compound: CN([C@@H]1CCc2c(CC(=O)O)c3cc(S(C)(=O)=O)ccc3n2C1)S(=O)(=O)c1ccc(F)cc1
EPHA1 (Homo sapiens, UniProt P21709): 88%
EGFR (Homo sapiens, UniProt P00533, del747-752/P753S): 80%
Tyrosine-protein kinase ABL1, phosphorylated (ABL1, Homo sapiens, UniProt P00519): 74%
FLT3 (Homo sapiens, UniProt P36888, D835Y): 100%
MAPKAPK2 (Homo sapiens, UniProt P49137): 100%
PRKX (Homo sapiens, UniProt P51817): 100%
FLT3 (Homo sapiens, UniProt P36888, ITD): 82%
DAPK3 (Homo sapiens, UniProt O43293): 97%
WEE2 (Homo sapiens, UniProt P0C1S8): 95%
LYN (Homo sapiens, UniProt P07948): 100%

Repeated from above (study 2):
O=Nc1c(-c2c(O)[nH]c3cc(Br)ccc23)[nH]c2ccccc12: 103%
O=C1NC(=O)c2c1c1c3ccccc3[nH]c1n1cncc21: 82.6%
